Assay results of several laboratories.
Each line is one published result; not all experiments were run side by side. Values joined by “and” are separate records of one study, mostly repeats; a detail may differ.
Target: Tyrosine-protein kinase CSK (CSK, Homo sapiens, UniProt P41240)
Chain of UniProt P41240 (whole entry, looked up): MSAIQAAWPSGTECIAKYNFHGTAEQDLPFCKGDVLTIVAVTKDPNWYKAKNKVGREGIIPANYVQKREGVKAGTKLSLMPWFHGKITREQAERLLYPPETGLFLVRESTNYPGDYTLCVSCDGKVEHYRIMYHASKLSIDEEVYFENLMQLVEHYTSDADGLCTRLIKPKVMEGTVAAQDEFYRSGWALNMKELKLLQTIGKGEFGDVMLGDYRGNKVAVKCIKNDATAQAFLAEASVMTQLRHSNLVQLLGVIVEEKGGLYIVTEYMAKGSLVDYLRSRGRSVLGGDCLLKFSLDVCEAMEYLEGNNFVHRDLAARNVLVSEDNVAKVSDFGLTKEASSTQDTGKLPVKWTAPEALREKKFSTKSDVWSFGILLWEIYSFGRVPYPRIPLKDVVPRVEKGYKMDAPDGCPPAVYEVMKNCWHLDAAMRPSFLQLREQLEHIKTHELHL

SMILES | assay | conditions | scale | quantity | result
CNC(=O)C1CCN(c2cc(C)c(F)cc2NC(=O)c2ccc(-c3cc(O)ccc3C)c(C)c2)CC1 | binding, competition with immobilised ligand | 1 µM |  | remaining binding | 39%
C=CC(=O)Nc1cccc(-c2cnc3[nH]cc(C(=O)NC(C)(C)C)c3n2)c1 | kinase activity | 0.1 µM |  | inhibition | 7% and 1%
COc1c(OCCCN2CCOCC2)ccc2c1N=C(NC(=O)c1cnc(N)nc1)N1CCN=C21 | kinase activity, inhibitor | 1 µM | relative to: untreated control | remaining activity | 104%
O=c1c(-c2ccc(Cl)c(CN3CCOCC3)c2)coc2cc(O)ccc12 | enzyme activity, inhibitor | 1 µM |  | remaining activity | 122%
COc1ccc(NC(=O)Nc2ccc3c(c2)C(=O)N(C(C)CO)CC(C)C(CN(C)Cc2ccc4c(c2)OCO4)O3)cc1 (centres unmarked) | kinase activity, KinaseProfiler | 0.03 µM, species human | relative to: control | remaining activity | 104%
NC(=O)[C@@H](O)C[C@H]1CCc2sc3ncnc(O[C@H]4CC[C@H](N5CCOCC5)CC4)c3c21 | enzyme activity, inhibitor | 10 µM |  | inhibition | 34%
Cc1cccc(-c2ccc3nc(NC(=O)C4CCOCC4)nn3c2)c1 | enzyme activity, Dundee kinase panel | 10 µM |  | remaining activity | 81%
CCn1cc(C(=O)O)c(=O)c2c(N)c(F)c(NC3CCCCC3)cc21 | kinase activity | 0.1 µM, added: ATP at Km |  | inhibition | 3.3%
CNC(=O)C[C@H](Cc1ccc(C#N)cc1)NC(=O)c1cc(-c2ccc(CN[C@H](C)c3ccc(C)cc3)o2)ccc1Cl | enzyme activity, inhibitor | 1 µM |  | activity vs control | 119%
CNC1C[S+]2CC[S+]3CC[S+](C1)[Ru-4]321([N]=C=S)[n]2c3ccc(OC)cc3c3c4c(c5cc(F)c[n+]1c5c32)C(=O)NC4=O (centres unmarked) | KinomeScan | 0.1 µM | relative to: untreated | remaining binding | 100%
Cc1ccc(-c2c(/C=C(\C#N)C(=O)NC(C)C)n(CCCO)c3ncnc(N)c23)cc1 | cell-free assay, competition with immobilised ligand | 1 µM |  | remaining binding | 100%
Cc1cccc(O[C@H]2CCC[C@@H](C(C)CNCc3ccncc3)C2)c1 (relative stereo) | kinase activity, kinome panel screening | 10 µM |  | inhibition | -11%
C=CC(=O)N1CCCC(n2c(=O)c3ncccc3n(Cc3ccc(Oc4ccccc4)cc3)c2=O)C1 (centres unmarked) | cell-free assay, competition with immobilised ligand | 1 µM |  | remaining binding | 100%
COc1cc(Nc2nccc(-c3cnn4nc(OC)ccc34)n2)cc(C(F)(F)F)c1 | binding, competition with immobilised ligand | 1 µM |  | remaining binding | 83%
Cc1cnc2nc1Nc1cccc(c1)COC/C=C/COCc1cc(ccc1OCCN1CCOCC1)N2 | cell-free assay | 0.1 µM |  | remaining signal | 78%
O=C(Cc1ccc(OCc2ccccc2)cc1)NC1(C(=O)O)CCN(C(=O)c2ccc(-c3cccc(Cl)c3)cc2)CC1 | enzyme activity, inhibitor | 10 µM |  | activity vs control | 135%
Cc1ccc(C)c(-c2ccc3nc(NC(=O)C4CCCCC4)nn3c2)c1 | enzyme activity, Dundee kinase panel | 10 µM |  | remaining activity | 68%
CN1CC[C@@H](COc2cnc(C#N)cc2-c2ccn3nc(NC(=O)C4CC4)cc3c2)C1 | enzyme activity, inhibitor | 1 µM |  | inhibition | -12%
C[C@H]1CN(C(=O)c2cn(-c3ccnc(N)n3)c3cc(C#CC4(O)CCCCC4)ccc23)CCN1 | enzyme activity, inhibitor, FRET | 1 µM |  | inhibition | 3%
CCN1CCN(Cc2ccc(NC(=O)c3ccc(C)c(NC(=O)c4cncc(-c5cccs5)c4)c3)cc2C(F)(F)F)CC1 | binding, competition with immobilised ligand | 1 µM |  | remaining binding | 1.6%
